Results pooled from the literature.
Numbered parts are unrelated; each lists some results of a single study.
UniProt P10721, sequence (whole entry, unmodified, looked up): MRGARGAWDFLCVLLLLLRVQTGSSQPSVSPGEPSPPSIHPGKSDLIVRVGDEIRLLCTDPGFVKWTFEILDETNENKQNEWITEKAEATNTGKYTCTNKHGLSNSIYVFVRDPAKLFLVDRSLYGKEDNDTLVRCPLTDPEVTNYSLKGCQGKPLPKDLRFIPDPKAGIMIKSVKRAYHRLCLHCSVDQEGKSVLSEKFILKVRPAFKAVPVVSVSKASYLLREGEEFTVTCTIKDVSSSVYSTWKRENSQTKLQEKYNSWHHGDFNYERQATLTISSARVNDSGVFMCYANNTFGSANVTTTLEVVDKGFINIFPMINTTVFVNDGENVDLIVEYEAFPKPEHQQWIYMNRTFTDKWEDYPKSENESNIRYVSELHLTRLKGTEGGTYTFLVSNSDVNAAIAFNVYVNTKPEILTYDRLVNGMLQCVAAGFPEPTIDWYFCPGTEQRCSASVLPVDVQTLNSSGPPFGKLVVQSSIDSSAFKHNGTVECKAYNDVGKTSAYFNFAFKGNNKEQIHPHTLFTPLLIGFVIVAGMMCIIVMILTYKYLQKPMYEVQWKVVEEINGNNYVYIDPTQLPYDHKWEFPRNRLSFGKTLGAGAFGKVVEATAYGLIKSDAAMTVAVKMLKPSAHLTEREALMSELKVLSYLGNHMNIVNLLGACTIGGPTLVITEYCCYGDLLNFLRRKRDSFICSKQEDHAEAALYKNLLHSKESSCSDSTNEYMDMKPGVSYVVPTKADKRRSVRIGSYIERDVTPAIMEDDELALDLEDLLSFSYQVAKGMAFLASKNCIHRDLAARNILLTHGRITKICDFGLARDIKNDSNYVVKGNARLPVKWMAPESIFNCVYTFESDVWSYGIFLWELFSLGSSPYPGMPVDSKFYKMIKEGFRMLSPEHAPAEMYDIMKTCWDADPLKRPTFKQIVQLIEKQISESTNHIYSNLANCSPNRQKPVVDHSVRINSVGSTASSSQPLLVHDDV
UniProt Q05655, sequence (whole entry, looked up): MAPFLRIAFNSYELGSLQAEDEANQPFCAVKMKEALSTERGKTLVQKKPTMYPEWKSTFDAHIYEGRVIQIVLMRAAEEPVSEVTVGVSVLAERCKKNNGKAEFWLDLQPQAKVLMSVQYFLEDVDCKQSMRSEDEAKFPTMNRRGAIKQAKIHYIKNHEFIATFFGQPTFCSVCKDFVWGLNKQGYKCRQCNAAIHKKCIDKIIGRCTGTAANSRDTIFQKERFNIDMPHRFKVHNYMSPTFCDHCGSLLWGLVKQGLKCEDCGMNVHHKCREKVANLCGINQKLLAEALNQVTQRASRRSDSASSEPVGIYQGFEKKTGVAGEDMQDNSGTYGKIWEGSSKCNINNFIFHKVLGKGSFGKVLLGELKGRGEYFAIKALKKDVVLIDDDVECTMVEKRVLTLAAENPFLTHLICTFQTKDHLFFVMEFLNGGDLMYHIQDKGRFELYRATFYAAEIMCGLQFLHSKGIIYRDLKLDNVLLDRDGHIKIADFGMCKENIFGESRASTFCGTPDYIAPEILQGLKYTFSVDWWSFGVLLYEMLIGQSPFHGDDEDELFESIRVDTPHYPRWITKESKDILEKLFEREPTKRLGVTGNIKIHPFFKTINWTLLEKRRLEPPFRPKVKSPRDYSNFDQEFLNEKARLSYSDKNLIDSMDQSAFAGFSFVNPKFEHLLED
UniProt P07948, sequence (whole entry, looked up): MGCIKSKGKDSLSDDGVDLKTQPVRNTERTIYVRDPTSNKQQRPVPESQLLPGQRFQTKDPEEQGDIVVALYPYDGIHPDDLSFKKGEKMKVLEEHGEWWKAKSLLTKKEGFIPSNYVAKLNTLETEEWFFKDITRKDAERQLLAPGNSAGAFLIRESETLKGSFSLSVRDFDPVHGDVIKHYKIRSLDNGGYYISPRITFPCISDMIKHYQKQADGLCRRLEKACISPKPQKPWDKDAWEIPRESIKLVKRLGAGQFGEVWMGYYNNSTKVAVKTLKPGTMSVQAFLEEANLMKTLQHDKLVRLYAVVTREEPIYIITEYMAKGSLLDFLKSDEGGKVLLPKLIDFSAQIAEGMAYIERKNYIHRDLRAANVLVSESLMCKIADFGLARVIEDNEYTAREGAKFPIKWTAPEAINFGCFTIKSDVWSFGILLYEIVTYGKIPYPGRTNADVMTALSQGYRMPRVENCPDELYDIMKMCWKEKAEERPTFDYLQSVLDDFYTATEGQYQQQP
UniProt Q07912, sequence (whole entry, looked up): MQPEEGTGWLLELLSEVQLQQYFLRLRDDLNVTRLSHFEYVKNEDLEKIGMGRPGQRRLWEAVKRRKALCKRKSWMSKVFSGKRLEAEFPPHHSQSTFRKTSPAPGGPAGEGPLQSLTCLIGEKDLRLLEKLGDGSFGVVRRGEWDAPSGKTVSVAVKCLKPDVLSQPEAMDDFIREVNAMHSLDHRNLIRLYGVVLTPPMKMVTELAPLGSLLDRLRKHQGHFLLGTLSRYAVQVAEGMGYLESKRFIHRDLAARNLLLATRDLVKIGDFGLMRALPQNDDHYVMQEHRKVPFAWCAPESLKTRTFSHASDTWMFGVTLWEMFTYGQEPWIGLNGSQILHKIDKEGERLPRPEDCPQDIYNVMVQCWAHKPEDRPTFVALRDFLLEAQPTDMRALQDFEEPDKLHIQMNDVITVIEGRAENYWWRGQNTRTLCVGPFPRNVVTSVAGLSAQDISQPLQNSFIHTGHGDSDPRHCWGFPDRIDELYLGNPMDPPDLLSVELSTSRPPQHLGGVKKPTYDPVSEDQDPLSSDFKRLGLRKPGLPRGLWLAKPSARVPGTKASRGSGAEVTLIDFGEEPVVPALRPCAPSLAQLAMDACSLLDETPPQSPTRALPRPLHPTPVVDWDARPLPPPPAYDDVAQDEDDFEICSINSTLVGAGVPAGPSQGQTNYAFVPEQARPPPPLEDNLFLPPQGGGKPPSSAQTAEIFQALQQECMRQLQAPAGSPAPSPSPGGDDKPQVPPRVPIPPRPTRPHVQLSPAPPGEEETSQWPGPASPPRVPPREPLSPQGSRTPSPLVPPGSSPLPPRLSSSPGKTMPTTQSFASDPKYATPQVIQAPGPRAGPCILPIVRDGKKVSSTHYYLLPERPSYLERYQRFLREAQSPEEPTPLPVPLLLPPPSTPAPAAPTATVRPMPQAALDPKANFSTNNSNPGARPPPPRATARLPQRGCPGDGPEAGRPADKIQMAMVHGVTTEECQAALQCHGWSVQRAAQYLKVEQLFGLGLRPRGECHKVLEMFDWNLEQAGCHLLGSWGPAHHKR
UniProt Q9UKE5, sequence (whole entry, looked up): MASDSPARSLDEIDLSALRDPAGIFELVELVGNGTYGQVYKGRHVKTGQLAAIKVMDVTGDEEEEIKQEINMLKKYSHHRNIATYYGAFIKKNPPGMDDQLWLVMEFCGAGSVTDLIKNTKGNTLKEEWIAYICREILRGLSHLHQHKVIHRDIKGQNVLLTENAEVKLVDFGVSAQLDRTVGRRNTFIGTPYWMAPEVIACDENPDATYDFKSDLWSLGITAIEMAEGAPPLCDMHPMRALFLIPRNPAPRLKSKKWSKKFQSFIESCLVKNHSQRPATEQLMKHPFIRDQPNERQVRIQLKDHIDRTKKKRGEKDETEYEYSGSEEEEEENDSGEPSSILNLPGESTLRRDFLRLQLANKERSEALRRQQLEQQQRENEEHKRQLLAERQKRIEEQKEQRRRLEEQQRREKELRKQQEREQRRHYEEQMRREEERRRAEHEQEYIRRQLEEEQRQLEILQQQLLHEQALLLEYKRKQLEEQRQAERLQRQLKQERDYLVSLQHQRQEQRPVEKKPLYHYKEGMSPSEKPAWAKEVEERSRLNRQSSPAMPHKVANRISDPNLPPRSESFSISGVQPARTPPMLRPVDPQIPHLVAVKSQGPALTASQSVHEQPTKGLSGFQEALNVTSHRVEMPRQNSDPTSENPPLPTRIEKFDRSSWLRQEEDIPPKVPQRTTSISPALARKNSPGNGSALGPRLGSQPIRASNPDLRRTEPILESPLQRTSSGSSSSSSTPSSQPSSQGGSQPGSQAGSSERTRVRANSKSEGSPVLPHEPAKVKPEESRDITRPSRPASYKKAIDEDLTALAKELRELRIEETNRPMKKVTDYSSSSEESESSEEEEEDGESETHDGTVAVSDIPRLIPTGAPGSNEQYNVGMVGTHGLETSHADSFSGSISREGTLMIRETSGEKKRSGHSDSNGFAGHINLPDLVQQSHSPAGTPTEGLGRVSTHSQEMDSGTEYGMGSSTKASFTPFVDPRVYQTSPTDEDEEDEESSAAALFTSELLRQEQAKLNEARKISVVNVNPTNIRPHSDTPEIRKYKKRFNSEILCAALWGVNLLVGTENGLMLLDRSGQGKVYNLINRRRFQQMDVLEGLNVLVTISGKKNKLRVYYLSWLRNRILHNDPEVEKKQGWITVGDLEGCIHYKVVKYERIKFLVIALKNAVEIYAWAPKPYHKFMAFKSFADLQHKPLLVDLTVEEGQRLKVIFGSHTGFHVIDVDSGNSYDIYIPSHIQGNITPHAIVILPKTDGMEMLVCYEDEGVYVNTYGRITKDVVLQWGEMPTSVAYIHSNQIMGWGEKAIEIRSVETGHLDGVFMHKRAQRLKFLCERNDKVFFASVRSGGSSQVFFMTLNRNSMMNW
UniProt Q9HBH9, sequence (whole entry, looked up): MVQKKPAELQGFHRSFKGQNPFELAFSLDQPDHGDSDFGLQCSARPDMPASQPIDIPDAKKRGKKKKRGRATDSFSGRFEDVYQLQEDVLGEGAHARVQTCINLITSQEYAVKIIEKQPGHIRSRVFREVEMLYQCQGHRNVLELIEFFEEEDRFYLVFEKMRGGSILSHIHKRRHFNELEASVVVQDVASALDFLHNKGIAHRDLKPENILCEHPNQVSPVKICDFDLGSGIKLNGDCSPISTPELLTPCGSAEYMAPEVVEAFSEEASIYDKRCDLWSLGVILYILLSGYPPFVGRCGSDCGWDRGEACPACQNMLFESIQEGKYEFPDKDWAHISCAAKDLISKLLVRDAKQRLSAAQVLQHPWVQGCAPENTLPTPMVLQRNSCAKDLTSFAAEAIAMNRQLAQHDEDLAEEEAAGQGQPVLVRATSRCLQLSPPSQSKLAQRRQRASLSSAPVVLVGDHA

Set 1 — concentration: 1 µM
Compound: COc1ccc2[nH]c3c4[nH]c5ccc(OC)cc5c4c4c(c3c2c1)C(=O)NC4=O
| target | test | setting | scale | remaining binding |
| --- | --- | --- | --- | --- |
| IKBKB (Homo sapiens, UniProt O14920) | competitive binding | IKK-beta |  | 87% |
| TEC (Homo sapiens, UniProt P42680) | competitive binding panel |  | reference: vehicle | 88% |
| HUNK (Homo sapiens, UniProt P57058) | competitive binding panel |  | reference: vehicle | 91% |
| MAPK10 (Homo sapiens, UniProt P53779) | competitive binding | JNK3 |  | 31% |
| SRPK1 (Homo sapiens, UniProt Q96SB4) | competitive binding panel |  | reference: vehicle | 86% |
| PDPK1 (Homo sapiens, UniProt O15530) | competitive binding panel |  | reference: vehicle | 25% |
| FER (Homo sapiens, UniProt P16591) | competitive binding panel |  | reference: vehicle | 58% |
| RPS6KA5 (Homo sapiens, UniProt O75582) | competitive binding scan | C-terminal kinase domain 2 |  | 66% |
| MAP3K7 (Homo sapiens, UniProt O43318) | competitive binding panel, measured: TAK1 |  | reference: vehicle | 20% |
| MAPK7 (Homo sapiens, UniProt Q13164) | competitive binding panel, measured: ERK5 |  | reference: vehicle | 69% |
| BRSK1 (Homo sapiens, UniProt Q8TDC3) | competitive binding panel |  | reference: vehicle | 10% |
| CSNK1G2 (Homo sapiens, UniProt P78368) | competitive binding panel |  | reference: vehicle | 86% |

Set 2 — SMILES: COc1cc2ncc(-c3ccccc3)nc2cc1OC; effect on: enzyme activity; action: inhibitor; concentration: 0.5 µM; reference: control
| target | remaining activity [%] |
| --- | --- |
| EPHA5 (Homo sapiens, UniProt P54756) | 99.9 |
| WNK2 (Homo sapiens, UniProt Q9Y3S1) | 104 |
| CSNK1A1 (Homo sapiens, UniProt P48729) | 100 |
| BTK (Homo sapiens, UniProt Q06187) | 98 |
| MKNK2 (Homo sapiens, UniProt Q9HBH9) | 86.3 |
| MAPK12 (Homo sapiens, UniProt P53778) | 95.5 |
| MAP3K10 (Homo sapiens, UniProt Q02779) | 105 |
| STK38 (Homo sapiens, UniProt Q15208) | 95.9 |
| LRRK2 (Homo sapiens, UniProt Q5S007) | 84.9 |
| Cyclin-dependent kinase 9, with cyclin T1 (CDK9, Homo sapiens, UniProt P50750) | 83.2 |
| PRKG1 (Homo sapiens, UniProt Q13976) | 77.1 |
| PRKCD (Homo sapiens, UniProt Q05655) | 82.2 |
| KIT (Homo sapiens, UniProt P10721) | 67.3 |
| NEK4 (Homo sapiens, UniProt P51957) | 101 |
| MAP4K2 (Homo sapiens, UniProt Q12851) | 99.2 |
| LYN (Homo sapiens, UniProt P07948) | 90.4 |
| PRKCI (Homo sapiens, UniProt P41743) | 82.1 |
| IRAK4 (Homo sapiens, UniProt Q9NWZ3) | 90.6 |
| MAP2K6 (Homo sapiens, UniProt P52564) | 94.9 |
| AKT3 (Homo sapiens, UniProt Q9Y243) | 94.5 |
| MAPK13 (Homo sapiens, UniProt O15264) | 89.6 |
| CHEK1 (Homo sapiens, UniProt O14757) | 94.7 |

Set 3 — effect on: cell-free assay; method: competition with immobilised ligand; concentration: 1 µM
SMILES: Cc1cc(-n2nc(Cc3cc(F)cc(C(F)(F)F)c3)nc2C)ccc1C(N)=O
| target | remaining binding |
| --- | --- |
| EGFR (Homo sapiens, UniProt P00533, del752-759) | 100% |
| DCLK3 (Homo sapiens, UniProt Q9C098) | 94% |
| Tyrosine-protein kinase ABL1, phosphorylated (ABL1, Homo sapiens, UniProt P00519, M351T) | 100% |
| KIT (Homo sapiens, UniProt P10721, L576P) | 52% |
| MYLK (Homo sapiens, UniProt Q15746) | 100% |
| RIPK1 (Homo sapiens, UniProt Q13546) | 90% |
| MAP3K11 (Homo sapiens, UniProt Q16584) | 84% |
| ROCK1 (Homo sapiens, UniProt Q13464) | 100% |
| TNK2 (Homo sapiens, UniProt Q07912) | 100% |
| KIT (Homo sapiens, UniProt P10721) | 95% |
| MET (Homo sapiens, UniProt P08581) | 81% |
| EGFR (Homo sapiens, UniProt P00533, G719S) | 100% |
| PRKCD (Homo sapiens, UniProt Q05655) | 88% |
| SNRK (Homo sapiens, UniProt Q9NRH2) | 100% |
| KIT (Homo sapiens, UniProt P10721, D816V) | 100% |
| NLK (Homo sapiens, UniProt Q9UBE8) | 100% |
| NEK10 (Homo sapiens, UniProt Q6ZWH5) | 100% |
| SBK3 (Homo sapiens, UniProt P0C264) | 91% |
| EGFR (Homo sapiens, UniProt P00533, L861Q) | 100% |
| EPHB1 (Homo sapiens, UniProt P54762) | 97% |
| TNIK (Homo sapiens, UniProt Q9UKE5) | 100% |
| Ribosomal protein S6 kinase alpha-4, C-terminal kinase domain (RPS6KA4, Homo sapiens, UniProt O75676) | 100% |

Set 4 — concentration: 1 µM
SMILES: C=CC(=O)N1CCC([C@@H]2CCNc3c(C(N)=O)c(-c4ccc(Oc5ccccc5)cc4)nn32)CC1
| target | test | inhibition [%] |
| --- | --- | --- |
| TGFBR2 (Homo sapiens, UniProt P37173) | cell-free assay | 0 |
| KIT (Homo sapiens, UniProt P10721, V559D/V654A) | enzyme activity, inhibitor | 12 |
| Non-receptor tyrosine-protein kinase TYK2, JH2 pseudokinase domain (TYK2, Homo sapiens, UniProt P29597) | inhibitor | 0 |
| TNK2 (Homo sapiens, UniProt Q07912) | enzyme activity, inhibitor | 43 |
| Aurora kinase C (AURKC, Homo sapiens, UniProt Q9UQB9) | enzyme activity, inhibitor | 28 |
| CDC42BPA (Homo sapiens, UniProt Q5VT25) | enzyme activity, inhibitor | 0 |
| MET (Homo sapiens, UniProt P08581, Y1235D) | cell-free assay | 7 |
| WNK3 (Homo sapiens, UniProt Q9BYP7) | enzyme activity, inhibitor | 11 |
| BRSK2 (Homo sapiens, UniProt Q8IWQ3) | enzyme activity, inhibitor | 19 |
| TNIK (Homo sapiens, UniProt Q9UKE5) | enzyme activity, inhibitor | 17 |
| LYN (Homo sapiens, UniProt P07948) | enzyme activity, inhibitor | 53 |
| PIK3CG (Homo sapiens, UniProt P48736) | enzyme activity, inhibitor | 0 |
